Measured values pooled from the literature.
Target: Serine/threonine-protein kinase Nek1 (NEK1, Homo sapiens, UniProt Q96PY6)

SMILES = COc1cc(Nc2nccc(-c3cnn4nc(OC)ccc34)n2)cc(C(F)(F)F)c1; assay = binding, competition with immobilised ligand; conditions = 1 µM; quantity = remaining binding; result = 100%
SMILES = O=C(Cc1ccc(OCc2ccccc2)cc1)NC1(C(=O)O)CCN(C(=O)c2ccc(-c3cccc(Cl)c3)cc2)CC1; assay = enzyme activity, inhibitor; conditions = 10 µM; quantity = activity vs control; result = 116%
SMILES = CN1C[C@@H](c2c[nH]c3cc(Br)ccc23)NC[C@@H]1c1c[nH]c2cc(Br)ccc12; assay = enzyme activity, inhibitor; conditions = 10 µM; quantity = remaining activity; result = 102%
SMILES = CNC(=O)C1CCN(c2cc(C)c(F)cc2NC(=O)c2ccc(-c3cc(O)ccc3C)c(C)c2)CC1; assay = binding, competition with immobilised ligand; conditions = 1 µM; quantity = remaining binding; result = 92%
SMILES = C=CC(=O)Nc1cccc(-c2cnc3[nH]cc(C(=O)NC(C)(C)C)c3n2)c1; assay = enzyme activity, inhibitor; conditions = 0.1 µM; quantity = inhibition; result = 29%
SMILES = C=CC(=O)N1CCc2ccc(-n3c(=O)ccc4cnc5ccc(-c6cnn(C)c6)cc5c43)cc21; assay = KINOMEscan; conditions = 1 µM; how to read = reference: DMSO control; quantity = remaining binding; result = 95%
SMILES = Nc1ncc(-c2cc(-c3cnn(CC(F)(F)F)c3)ncc2F)nc1C(=O)NC1CNCC(F)C1 (stereo not shown); assay = enzyme activity; conditions = 1 µM; how to read = reference: DMSO control; quantity = remaining activity; result = 78.8%
SMILES = CCN1CCN(Cc2ccc(C(=O)Nc3ccc(C)c(NCc4cnc5[nH]ccc5c4OC)c3)cc2C(F)(F)F)CC1; assay = binding, competition with immobilised ligand; conditions = 1 µM; quantity = remaining binding; result = 63%
SMILES = CN1CC[C@@H](COc2cnc(C#N)cc2-c2ccn3nc(NC(=O)C4CC4)cc3c2)C1; assay = enzyme activity, inhibitor; conditions = 1 µM; quantity = inhibition; result = -1%
SMILES = Cc1cccc(O[C@H]2CCC[C@@H](C(C)CNCc3ccncc3)C2)c1 (relative stereo); assay = enzyme activity, inhibitor; conditions = 1 µM; quantity = inhibition; result = 4%
SMILES = C=CC(=O)N1Cc2nc(-c3cc(-c4cc(Cl)cnc4Cl)c(F)cc3F)n(-c3ccncn3)c2C1; assay = cell-free assay, inhibitor; conditions = 1 µM; quantity = inhibition; result = 2%
SMILES = NC(=O)[C@@H](O)C[C@H]1CCc2sc3ncnc(O[C@H]4CC[C@H](N5CCOCC5)CC4)c3c21; assay = enzyme activity, inhibitor; conditions = 10 µM; quantity = inhibition; result = -14%
SMILES = CNC(=O)C[C@H](Cc1ccc(C#N)cc1)NC(=O)c1cc(-c2ccc(CN[C@H](C)c3ccc(C)cc3)o2)ccc1Cl; assay = enzyme activity, inhibitor; conditions = 1 µM; quantity = activity vs control; result = 95%
SMILES = CC(C)=CC1OC(C)(C)C2C=C3C(=O)C(Cl)=CC(O)C3C3C(O)C4OC4C(=O)C132 (stereo not shown); assay = cell-free assay, competition with immobilised ligand; conditions = 10 µM; quantity = remaining binding; result = 89%
SMILES = CCn1cc(C(=O)O)c(=O)c2c(N)c(F)c(NC3CCCCC3)cc21; assay = kinase activity; conditions = 0.1 µM, with: ATP at Km; quantity = inhibition; result = 1.2%
SMILES = COc1ccc(C(=O)/C=C/c2ccccc2-c2c[nH]c3ccc(C#N)cc23)c(O)c1; assay = enzyme activity, inhibitor; conditions = 20 µM; quantity = inhibition; result = -3%

For quick reference, copied from above:
SMILES = CCn1cc(C(=O)O)c(=O)c2c(N)c(F)c(NC3CCCCC3)cc21; assay = kinase activity; conditions = 0.1 µM, with: ATP at Km; quantity = inhibition; result = 1.2%
SMILES = CC(C)=CC1OC(C)(C)C2C=C3C(=O)C(Cl)=CC(O)C3C3C(O)C4OC4C(=O)C132 (stereo not shown); assay = cell-free assay, competition with immobilised ligand; conditions = 10 µM; quantity = remaining binding; result = 89%
